Measurements from different studies.
Each numbered part is a random draw from the data of one study; scales do not carry over between parts. ± gives the spread as reported.
Sequence of UniProt P25929 (whole entry, looked up): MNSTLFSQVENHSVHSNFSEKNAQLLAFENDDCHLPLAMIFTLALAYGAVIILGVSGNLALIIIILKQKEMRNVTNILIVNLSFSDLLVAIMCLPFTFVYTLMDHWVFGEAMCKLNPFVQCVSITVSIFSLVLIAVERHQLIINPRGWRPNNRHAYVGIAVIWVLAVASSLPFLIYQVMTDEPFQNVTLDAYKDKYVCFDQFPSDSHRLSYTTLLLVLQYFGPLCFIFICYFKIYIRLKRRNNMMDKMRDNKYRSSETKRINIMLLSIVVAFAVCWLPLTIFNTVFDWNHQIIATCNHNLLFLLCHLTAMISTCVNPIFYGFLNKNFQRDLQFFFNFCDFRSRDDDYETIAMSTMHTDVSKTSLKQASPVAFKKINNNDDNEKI
Sequence of UniProt O00519 (whole entry, looked up): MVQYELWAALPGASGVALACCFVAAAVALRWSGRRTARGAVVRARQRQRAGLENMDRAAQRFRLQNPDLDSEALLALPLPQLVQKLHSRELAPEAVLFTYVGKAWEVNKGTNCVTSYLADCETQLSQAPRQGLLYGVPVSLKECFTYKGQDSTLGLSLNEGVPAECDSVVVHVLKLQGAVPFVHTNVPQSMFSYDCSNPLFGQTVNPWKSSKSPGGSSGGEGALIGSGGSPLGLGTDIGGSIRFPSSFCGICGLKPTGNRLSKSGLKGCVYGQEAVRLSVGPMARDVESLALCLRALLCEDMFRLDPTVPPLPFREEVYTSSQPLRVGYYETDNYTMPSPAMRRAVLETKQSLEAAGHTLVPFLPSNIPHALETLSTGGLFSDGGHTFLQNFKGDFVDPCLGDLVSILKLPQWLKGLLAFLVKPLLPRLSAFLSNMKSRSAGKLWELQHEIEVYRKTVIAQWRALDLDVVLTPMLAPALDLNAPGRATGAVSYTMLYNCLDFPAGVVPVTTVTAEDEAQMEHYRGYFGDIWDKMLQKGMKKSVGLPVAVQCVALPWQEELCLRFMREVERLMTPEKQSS
Sequence of UniProt P34914 (whole entry, looked up): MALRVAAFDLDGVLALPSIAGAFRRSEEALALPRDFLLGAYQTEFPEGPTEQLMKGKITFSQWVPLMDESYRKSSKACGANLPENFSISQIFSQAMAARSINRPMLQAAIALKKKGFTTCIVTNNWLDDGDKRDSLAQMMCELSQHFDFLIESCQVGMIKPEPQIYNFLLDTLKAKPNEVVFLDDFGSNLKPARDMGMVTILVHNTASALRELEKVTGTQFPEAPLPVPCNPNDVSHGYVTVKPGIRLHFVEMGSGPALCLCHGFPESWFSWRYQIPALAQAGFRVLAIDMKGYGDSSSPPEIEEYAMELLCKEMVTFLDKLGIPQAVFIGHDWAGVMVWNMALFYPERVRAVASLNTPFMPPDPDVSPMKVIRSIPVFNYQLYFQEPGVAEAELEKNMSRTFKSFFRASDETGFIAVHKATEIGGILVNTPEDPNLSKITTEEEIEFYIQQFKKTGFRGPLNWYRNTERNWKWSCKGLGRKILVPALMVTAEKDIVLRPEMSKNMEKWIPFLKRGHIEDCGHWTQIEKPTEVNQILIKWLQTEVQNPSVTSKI

Study 1
SMILES: Cc1cc(OCc2nnc(SC3CCCC3)n2-c2cccnc2)ccc1-c1ccc(S(C)(=O)=O)cc1
Quantity: CC50
cell line = NCI-H23; value = > 100 µM
cell line = K562; value = > 100 µM
cell line = Hs-578T; value = > 100 µM
cell line = T47D; value = > 100 µM
cell line = PC-3; value = > 100 µM
cell line = TK-10; value = > 100 µM

Mixed results
Substance = O=C(Nc1ccc(-c2cnc3ccccc3c2)cc1)C1CCN(Cc2cccnc2)CC1; target or system = Fatty-acid amide hydrolase 1 (FAAH, Homo sapiens, UniProt O00519); quantity = IC50; value = 0.198 µM
Substance = CC[C@@H]1C(=O)N(C)c2cnc(Nc3ccc(C(=O)NC4CCN(C)CC4)cc3OC)nc2N1C1CCCC1; target or system = Bromodomain-containing protein 4, BD1 (BRD4, Homo sapiens, UniProt O60885); conditions = 50 µM; quantity = inhibition; value = 99.6%
Substance = O=C(Nc1ccc(OC(F)(F)F)cc1)NC1CCN(c2c(NS(=O)(=O)Cc3ccccc3)c(=O)c2=O)CC1; target or system = Bifunctional epoxide hydrolase 2 (Ephx2, Mus musculus, UniProt P34914); quantity = IC50; value = 1.09 ± 0.0832 µM
Substance = C#Cc1cccc(Nc2ncnc3cc(OCCOC)c(OCCOC)cc23)c1; target or system = PC-3; test = MTT; conditions = 1000 µg/mL, RPMI medium with 2% serum; quantity = viability; value = 3.64%
Substance = human neuropeptide Y; target or system = Neuropeptide Y receptor type 1 (NPY1R, Homo sapiens, UniProt P25929); test = agonist, ELISA; system = SK-N-MC cells; conditions = 1.0 nM, 1 h, 37 °C, added: forskolin 10 µM; how to read = reference: forskolin-stimulated saline-treated cells; quantity = cAMP level; value = 59.6 ± 6.8%
Substance = N#Cc1ccc(-c2csc(CNC(=O)C34CC(CN(C(=O)COCCF)C3)C4)n2)cc1; system = rat, Sprague Dawley, male, cryopreserved hepatocytes; conditions = 0.5 µM; quantity = CLint scaled; value = 4.6 mL/min/kg

Repeated from above (study 1):
cell line = T47D; value = > 100 µM
cell line = PC-3; value = > 100 µM
